# Published values from different studies.
# Each line is one published result; not all experiments were run side by side.
SMILES,tested on,test,conditions,how to read,quantity,result
CC#CC(=O)N1CCC[C@H]1c1nc(-c2ccc(C(=O)Nc3ccccn3)cc2)c2c(N)nccn12,Ramos,"calcium flux, FLIPR",1 h preincubation,,IC50,65 nM
CCCCN1C[C@H](O)[C@@H](O)[C@@H](O)[C@H]1CO,sample C patient fibroblasts,"Gb3 level lowering, LC-MS/MS, refers to: Gb3 d18:1/22:0",216 h,,IC50,6400 nM
C=CC(=O)N1CCC[C@@H](n2nc(-c3ccc(Oc4ccccc4)cc3)c3c(N)ncnc32)C1,TMD8 RAC2 knockout,"calcium flux, FLIPR",4 h preincubation,,IC50,0.8 nM
C[C@@H]1CN(C(=O)c2ccc(NC(=O)c3cc(O[C@H](C)c4c(Cl)ccc(F)c4Cl)c(N)nn3)cc2)C[C@H](C)N1,Ba/F3 EML4-ALK variant 1 S1206F,cell viability,,,IC50,22.2 nM
C=CC(=O)N1CCC(COCC(=O)N2CCN(c3nc(-c4cnc(N)nc4C(F)F)nc(N4CCOC[C@@H]4C)n3)CC2)CC1,T47D,"S6 phosphorylation, inhibitor, in-cell western, refers to: phospho-S6 Ser235/236",2 h,,IC50,26.4 nM
O=C(O)[C@@H](O)[C@H](O)[C@H](O)CO,,"binding, equilibrium dialysis LC-MS","5 µM, thermostabilized A2AR-BRIL construct","relative to: no-protein control, direction not given",z-scored log2 fold change,0.0978
COc1cc(N2CCC(N3CCN(C)CC3)CC2)ccc1Nc1ncc(Cl)c(Nc2ccccc2P(C)(C)=O)n1,Ba/F3 EML4-ALK variant 1 S1206F,cell viability,,,IC50,90.5 nM
CCC(=O)N1CCC(COCC(=O)N2CCN(c3nc(-c4cnc(N)nc4C(F)F)nc(N4CCOC[C@@H]4C)n3)CC2)CC1,SK-OV-3,"western blot, refers to: phospho-S6 Ser235/Ser236",2 h,,IC50,78.7 nM
C[C@H]1Oc2cc(cnc2N)-c2c(nn(C)c2C#N)CN(C)C(=O)c2ccc(F)cc21,KARPAS-299 (NPM1-ALK),cell viability,,,IC50,3.27 nM
C=CC(=O)N1CCC([C@@H]2CCNc3c(C(N)=O)c(-c4ccc(Oc5ccccc5)cc4)nn32)CC1,Ramos,"calcium flux, FLIPR",4 h preincubation,,IC50,1.41 nM
O=C(O)C(=O)CO,,"binding, equilibrium dialysis LC-MS","5 µM, thermostabilized A2AR-BRIL construct","relative to: no-protein control, direction not given",z-scored log2 fold change,-0.881

# A few entries again:
SMILES,tested on,test,conditions,how to read,quantity,result
CCCCN1C[C@H](O)[C@@H](O)[C@@H](O)[C@H]1CO,sample C patient fibroblasts,"Gb3 level lowering, LC-MS/MS, refers to: Gb3 d18:1/22:0",216 h,,IC50,6400 nM
C=CC(=O)N1CCC[C@@H](n2nc(-c3ccc(Oc4ccccc4)cc3)c3c(N)ncnc32)C1,TMD8 RAC2 knockout,"calcium flux, FLIPR",4 h preincubation,,IC50,0.8 nM
